Measured values of several laboratories.
Lines come from different studies, so protocols differ. Values joined by “and” are separate records of one study, mostly repeats; a detail may differ. Numbers after ± are the reported error.

SMILES	assay	test system	conditions	logP
O=C(CCCCCCC(=O)Nc1ccc(CC[18F])cc1)NO	–	octanol/PBS	pH 7.4	1.01 ± 0.02
C=Cc1c(C)c2cc3nc(c4c5[nH]c(cc6nc(cc1[nH]2)C(C)=C6CC)c(C)c5C(=O)C4)[C@@H](CCC(=O)O)[C@@H]3C	shake flask	octanol/water 1:2	–	0.748
CN1C(C(=O)Nc2ccccn2)=C(O)c2sccc2S1(=O)=O	–	–	–	0.7
CCc1ccccc1NC(=O)CSc1nnc(-c2cccc(OC)c2)n1C	–	octanol/buffer	pH 11	2.85
C[C@@H](NC(=O)c1ccccc1CCC(=O)NNC(=O)/C=C/C(=O)OCc1nccs1)c1cccc2ccccc12	–	–	–	3.1
Cc1cnc(NC(=O)C2=C(O)c3ccccc3S(=O)(=O)N2C)s1	shake-flask, potentiometric	1-octanol/water	–	2.5
C[C@@H](NC(=O)c1ccccc1CCC(=O)NNC(=O)/C=C/C(=O)OC1CCCCC1)c1cccc2ccccc12	–	–	–	4.9
C[C@H]1COC2=C1C(=O)C(=O)c1c2ccc2c1CCCC2(C)C	–	n-octanol/water	24 h, 25 °C	4.5 and 4.46
C[C@@H](NC(=O)c1ccccc1CCC(=O)NNC(=O)/C=C/C(=O)OC1CCC1)c1cccc2ccccc12	–	–	–	4
O=C(NC1CCCCC1)c1nccc(Cl)c1O	shake-flask, potentiometric	1-octanol/water	–	2.9
CC(C)OC(=O)/C=C/C(=O)NNC(=O)CCc1ccccc1C(=O)N[C@H](C)c1cccc2ccccc12	–	–	–	3.8
Cc1cc(C)c(S(=O)(=O)N(C)CC(=O)N2CCC(C(N)=O)CC2)c(C)c1	–	octanol/buffer	pH 11, known kinase inactives set	1.38
C[C@@H](NC(=O)c1ccccc1CCC(=O)NNC(=O)/C=C/C(=O)OC(C)(C)C)c1cccc2ccccc12	–	–	–	4
C=Cc1c(C)c2cc3nc(c4c5[nH]c(cc6nc(cc1[nH]2)C(C)=C6CC)c(C)c5C(=O)C4)[C@@H](CCC(=O)OC)[C@@H]3C	shake flask	octanol/water 1:1	–	0.879
COc1cc(NC(=O)CSc2nncn2C)cc(OC)c1OC	–	octanol/buffer	pH 11, known kinase inactives set	0.67
O=C(NC1CCCCC1)c1ncccc1O	shake-flask, potentiometric	1-octanol/water	–	3.6
O=C(Cn1cnc([N+](=O)[O-])n1)Nc1ccc(N2CCOCC2)c(Cl)c1	–	octanol/buffer	pH 11, known kinase inactives set	1.91

SMILES	assay	test system	conditions	logP
CN(Cc1cnc2nc(N)nc(N)c2n1)c1ccc(C(=O)N[C@@H](CCC(=O)O)C(=O)O)cc1	–	–	–	0.94
Cc1nc(C(=O)NCC(=O)O)c(O)c2ccc(Oc3ccccc3)cc12	shake-flask, potentiometric	1-octanol/water	–	3.7
CCn1c(C(=O)N(C2CC2)C2CC2)cc2c3c(ncn3C)c(Nc3cc(C)n(C)n3)nc21	–	octanol/water	–	3.4
Cc1nn(C)cc1S(=O)(=O)NC(=O)c1ccc(-n2ccc(OCC(C)(C)C(F)(F)F)n2)nc1N1C[C@@H](C)CC1(C)C	shake-flask, potentiometric	1-octanol/water	–	> 4.7
CCCCC(CC)COC(=O)CC(C(=O)OCC(CC)CCCC)S(=O)(=O)O.O=C(NCCCNc1nc(Nc2cccc(NC(=O)N3CCCC3)c2)ncc1I)c1cccs1	shake flask	octanol/water	–	3.3 ± 0.56
CC(=O)Nc1ccc(S(=O)(=O)Nc2c(C)nn(-c3ccccc3)c2C)cc1	–	octanol/buffer	pH 11, known kinase inactives set	0.99
CCOC(=O)/C=C/C(=O)NNC(=O)CCc1ccccc1C(=O)N[C@H](C)c1cccc2ccccc12	–	–	–	3.4
CC(C)C1c2cc(C3CC3c3cc(/C=C/C4CC4)c4cc(C(=N)N)ccc4c3)ccc2CCN1C (stereo not shown)	–	octanol/buffer	pH 11, urokinase ligand set	> 4.5
CC(C)=CCC/C(C)=C/C(=O)O.Cc1cc(/C=C/C#N)cc(C)c1Nc1ccnc(Nc2ccc(C#N)cc2)n1	–	octanol/water	room temperature	2.67 ± 0.01
O=C(O)c1ccc2nc(-c3cc(Cl)cc(Cl)c3)oc2c1	in-house determination	–	–	2.12
C[C@@H](NC(=O)c1ccccc1CCC(=O)NNC(=O)/C=C/C(=O)N(C)C)c1cccc2ccccc12	–	–	–	2.6
COc1ccc(NC(=O)CSc2nnc(-c3ccncc3)[nH]2)cc1	–	octanol/buffer	pH 11, known kinase inactives set	0
CCNC(=O)c1ncccc1O	shake-flask, potentiometric	1-octanol/water	–	1.6
Cc1nc(C)c(-n2ccc(-c3ccc4c(c3)CCC(=O)N4)n2)nc1C	–	–	–	> 3
O=C(O)c1c(O)c(-c2ccccc2)nc2ccccc12	shake-flask, potentiometric	1-octanol/water	–	0.6
COC(=O)/C=C/C(=O)NNC(=O)CCc1ccccc1C(=O)N[C@H](C)c1cccc(-c2cncnc2)c1	–	–	–	1.9
COC(=O)Nc1ccc2nc(C(=N)N)ccc2c1	–	octanol/buffer	pH 11, urokinase ligand set	1.71

For quick reference, copied from above:
SMILES	assay	test system	conditions	logP
CCNC(=O)c1ncccc1O	shake-flask, potentiometric	1-octanol/water	–	1.6
CC(C)OC(=O)/C=C/C(=O)NNC(=O)CCc1ccccc1C(=O)N[C@H](C)c1cccc2ccccc12	–	–	–	3.8
CN1C(C(=O)Nc2ccccn2)=C(O)c2sccc2S1(=O)=O	–	–	–	0.7
